# Experimental data gathered from unrelated publications.
# Parts stem from different laboratories: compare values within a part only.
# Chain of UniProt Q9NWZ3 (whole entry, looked up): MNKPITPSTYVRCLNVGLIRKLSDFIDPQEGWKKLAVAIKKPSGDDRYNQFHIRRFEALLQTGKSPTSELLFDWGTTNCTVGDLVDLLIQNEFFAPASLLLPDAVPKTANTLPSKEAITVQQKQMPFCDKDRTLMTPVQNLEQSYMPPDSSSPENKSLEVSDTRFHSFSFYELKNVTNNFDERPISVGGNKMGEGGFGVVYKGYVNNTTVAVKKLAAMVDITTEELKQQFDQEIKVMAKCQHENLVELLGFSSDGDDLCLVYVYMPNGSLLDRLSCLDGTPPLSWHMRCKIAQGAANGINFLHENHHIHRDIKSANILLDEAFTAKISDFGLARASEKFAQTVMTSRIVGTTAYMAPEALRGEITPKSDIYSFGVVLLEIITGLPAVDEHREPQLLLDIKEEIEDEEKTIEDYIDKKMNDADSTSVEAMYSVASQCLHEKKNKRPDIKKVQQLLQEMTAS
# Chain of UniProt P10721 (whole entry, unmodified, looked up): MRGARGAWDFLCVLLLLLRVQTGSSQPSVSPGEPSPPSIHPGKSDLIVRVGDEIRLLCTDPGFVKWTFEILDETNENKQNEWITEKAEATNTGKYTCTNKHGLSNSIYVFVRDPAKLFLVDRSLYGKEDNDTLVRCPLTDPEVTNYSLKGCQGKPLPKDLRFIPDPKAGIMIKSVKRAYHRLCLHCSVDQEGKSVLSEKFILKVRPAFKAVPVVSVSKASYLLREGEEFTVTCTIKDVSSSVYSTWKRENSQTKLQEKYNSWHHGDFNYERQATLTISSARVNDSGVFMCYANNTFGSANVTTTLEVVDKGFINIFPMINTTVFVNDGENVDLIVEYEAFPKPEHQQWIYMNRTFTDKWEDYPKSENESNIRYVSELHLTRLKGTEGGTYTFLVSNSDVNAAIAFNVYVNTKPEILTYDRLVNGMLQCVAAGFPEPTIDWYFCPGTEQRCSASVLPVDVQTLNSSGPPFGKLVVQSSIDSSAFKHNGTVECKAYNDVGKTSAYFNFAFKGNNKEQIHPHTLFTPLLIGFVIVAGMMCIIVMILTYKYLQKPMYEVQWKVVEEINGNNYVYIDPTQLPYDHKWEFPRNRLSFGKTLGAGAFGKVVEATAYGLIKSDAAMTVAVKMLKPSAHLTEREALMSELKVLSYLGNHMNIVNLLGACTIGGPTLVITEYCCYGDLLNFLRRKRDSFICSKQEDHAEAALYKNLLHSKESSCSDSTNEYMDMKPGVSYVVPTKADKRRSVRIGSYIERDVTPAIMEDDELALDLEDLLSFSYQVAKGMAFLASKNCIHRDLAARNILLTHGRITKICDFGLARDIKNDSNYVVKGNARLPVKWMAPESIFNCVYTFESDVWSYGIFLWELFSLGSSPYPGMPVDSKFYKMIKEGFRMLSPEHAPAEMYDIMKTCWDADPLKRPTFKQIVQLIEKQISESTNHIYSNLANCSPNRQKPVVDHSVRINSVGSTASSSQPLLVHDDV
# Chain of UniProt Q13557 (whole entry, looked up): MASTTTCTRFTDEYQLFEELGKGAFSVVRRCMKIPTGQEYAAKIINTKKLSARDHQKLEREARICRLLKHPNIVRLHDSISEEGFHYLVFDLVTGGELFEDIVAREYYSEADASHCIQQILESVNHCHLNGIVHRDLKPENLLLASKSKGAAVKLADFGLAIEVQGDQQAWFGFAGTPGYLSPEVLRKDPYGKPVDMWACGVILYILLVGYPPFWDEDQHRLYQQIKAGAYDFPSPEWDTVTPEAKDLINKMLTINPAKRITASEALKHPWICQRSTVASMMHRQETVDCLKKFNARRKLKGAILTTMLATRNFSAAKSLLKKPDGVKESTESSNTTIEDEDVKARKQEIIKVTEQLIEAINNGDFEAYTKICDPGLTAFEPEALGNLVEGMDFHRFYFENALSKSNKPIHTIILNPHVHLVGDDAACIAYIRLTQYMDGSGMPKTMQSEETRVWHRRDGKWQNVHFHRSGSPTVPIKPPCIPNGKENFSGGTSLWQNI
# Chain of UniProt Q9H2X6 (whole entry, looked up): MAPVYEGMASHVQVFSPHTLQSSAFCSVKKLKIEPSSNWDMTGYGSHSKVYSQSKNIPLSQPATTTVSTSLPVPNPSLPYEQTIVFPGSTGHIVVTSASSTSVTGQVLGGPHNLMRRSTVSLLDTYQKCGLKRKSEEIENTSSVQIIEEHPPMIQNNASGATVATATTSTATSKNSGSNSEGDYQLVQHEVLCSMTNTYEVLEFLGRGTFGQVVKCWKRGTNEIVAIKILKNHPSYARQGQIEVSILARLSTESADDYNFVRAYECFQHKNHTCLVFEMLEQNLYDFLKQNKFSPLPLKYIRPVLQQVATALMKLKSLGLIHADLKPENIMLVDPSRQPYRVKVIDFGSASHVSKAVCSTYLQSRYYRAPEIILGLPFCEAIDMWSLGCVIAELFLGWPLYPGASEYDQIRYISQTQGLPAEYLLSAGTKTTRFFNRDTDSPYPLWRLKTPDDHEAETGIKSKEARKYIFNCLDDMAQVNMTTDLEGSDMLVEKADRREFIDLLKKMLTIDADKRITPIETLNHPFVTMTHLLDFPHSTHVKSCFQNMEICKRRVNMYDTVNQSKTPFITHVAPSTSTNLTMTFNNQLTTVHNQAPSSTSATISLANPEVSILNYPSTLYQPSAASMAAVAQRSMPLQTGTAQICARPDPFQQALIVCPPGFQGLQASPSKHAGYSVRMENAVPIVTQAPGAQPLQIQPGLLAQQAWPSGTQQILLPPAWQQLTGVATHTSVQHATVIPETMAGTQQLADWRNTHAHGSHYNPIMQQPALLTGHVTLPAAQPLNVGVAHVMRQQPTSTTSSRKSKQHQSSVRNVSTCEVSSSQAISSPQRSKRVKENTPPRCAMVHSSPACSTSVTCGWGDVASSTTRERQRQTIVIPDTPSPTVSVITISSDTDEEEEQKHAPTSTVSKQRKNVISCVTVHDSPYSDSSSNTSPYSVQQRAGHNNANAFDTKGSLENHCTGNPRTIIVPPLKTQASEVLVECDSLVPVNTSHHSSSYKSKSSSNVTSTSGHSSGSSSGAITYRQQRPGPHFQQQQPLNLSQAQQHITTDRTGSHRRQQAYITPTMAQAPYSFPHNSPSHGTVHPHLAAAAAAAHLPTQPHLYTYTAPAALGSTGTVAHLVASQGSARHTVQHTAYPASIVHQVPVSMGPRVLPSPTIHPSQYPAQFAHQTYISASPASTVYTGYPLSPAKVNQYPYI
# Chain of UniProt Q9C098 (whole entry, looked up): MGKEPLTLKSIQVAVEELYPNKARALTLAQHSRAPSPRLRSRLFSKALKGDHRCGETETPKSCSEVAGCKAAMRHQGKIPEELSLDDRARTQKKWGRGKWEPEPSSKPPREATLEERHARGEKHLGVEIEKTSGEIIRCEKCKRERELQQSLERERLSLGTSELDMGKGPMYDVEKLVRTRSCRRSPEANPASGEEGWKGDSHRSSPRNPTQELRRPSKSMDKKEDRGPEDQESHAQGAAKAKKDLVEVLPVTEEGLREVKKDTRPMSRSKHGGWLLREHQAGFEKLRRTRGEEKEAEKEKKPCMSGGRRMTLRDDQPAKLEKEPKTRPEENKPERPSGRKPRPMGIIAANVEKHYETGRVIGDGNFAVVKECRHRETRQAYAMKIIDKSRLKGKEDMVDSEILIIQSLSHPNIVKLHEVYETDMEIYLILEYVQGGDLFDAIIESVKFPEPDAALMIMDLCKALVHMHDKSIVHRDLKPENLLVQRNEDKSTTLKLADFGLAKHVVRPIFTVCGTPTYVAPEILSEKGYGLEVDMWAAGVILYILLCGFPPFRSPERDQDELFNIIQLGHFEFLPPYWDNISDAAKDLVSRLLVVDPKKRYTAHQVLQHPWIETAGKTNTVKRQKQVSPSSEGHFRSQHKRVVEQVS
# Chain of UniProt Q13882 (whole entry, looked up): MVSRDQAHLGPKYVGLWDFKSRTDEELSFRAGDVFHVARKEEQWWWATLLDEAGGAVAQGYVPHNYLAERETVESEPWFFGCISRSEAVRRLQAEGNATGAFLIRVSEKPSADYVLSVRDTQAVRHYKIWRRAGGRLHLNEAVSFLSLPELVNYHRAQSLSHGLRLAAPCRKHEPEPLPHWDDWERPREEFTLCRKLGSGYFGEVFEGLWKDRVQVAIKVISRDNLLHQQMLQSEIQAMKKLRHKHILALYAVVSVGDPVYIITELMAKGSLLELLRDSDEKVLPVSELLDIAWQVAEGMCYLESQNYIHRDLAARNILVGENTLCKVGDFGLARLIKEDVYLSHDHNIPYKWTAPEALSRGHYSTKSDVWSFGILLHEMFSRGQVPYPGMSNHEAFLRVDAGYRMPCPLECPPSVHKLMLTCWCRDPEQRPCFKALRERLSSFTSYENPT
# Chain of UniProt Q9UK32 (whole entry, looked up): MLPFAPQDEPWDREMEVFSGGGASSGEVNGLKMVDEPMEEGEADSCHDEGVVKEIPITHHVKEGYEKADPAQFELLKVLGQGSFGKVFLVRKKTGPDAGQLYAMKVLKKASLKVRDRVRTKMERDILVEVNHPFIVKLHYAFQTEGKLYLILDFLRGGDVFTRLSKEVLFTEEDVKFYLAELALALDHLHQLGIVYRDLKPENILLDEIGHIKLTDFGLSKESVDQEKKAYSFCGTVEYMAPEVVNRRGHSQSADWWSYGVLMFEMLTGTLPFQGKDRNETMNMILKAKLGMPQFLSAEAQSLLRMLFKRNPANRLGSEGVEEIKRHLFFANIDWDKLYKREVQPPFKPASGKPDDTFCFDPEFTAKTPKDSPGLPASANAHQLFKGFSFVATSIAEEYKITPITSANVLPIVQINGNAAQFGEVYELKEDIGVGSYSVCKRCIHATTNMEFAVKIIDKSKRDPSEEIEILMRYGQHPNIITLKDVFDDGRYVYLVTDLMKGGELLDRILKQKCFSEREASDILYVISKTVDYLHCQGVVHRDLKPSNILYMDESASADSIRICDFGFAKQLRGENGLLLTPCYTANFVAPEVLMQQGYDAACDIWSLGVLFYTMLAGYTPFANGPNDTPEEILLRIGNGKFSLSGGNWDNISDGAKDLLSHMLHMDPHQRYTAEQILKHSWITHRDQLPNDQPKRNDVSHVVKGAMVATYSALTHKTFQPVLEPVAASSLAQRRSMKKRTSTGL

# Study 1 — tested at: 1 µM
# SMILES: COc1ccc2[nH]c3c4[nH]c5ccc(OC)cc5c4c4c(c3c2c1)C(=O)NC4=O
target,test,setting,scale,remaining binding
"ERN1 (Homo sapiens, UniProt O75460)",competitive binding panel,,baseline: vehicle,93%
"MAPK9 (Homo sapiens, UniProt P45984)",competitive binding,JNK2,,55%
"CAMK2G (Homo sapiens, UniProt Q13555)",competitive binding panel,,baseline: vehicle,80%
"HIPK2 (Homo sapiens, UniProt Q9H2X6)",competitive binding panel,,baseline: vehicle,64%
"BLK (Homo sapiens, UniProt P51451)",competitive binding panel,,baseline: vehicle,71%
"PIP4K2C (Homo sapiens, UniProt Q8TBX8)","competitive binding panel, measured: PIP5K2C",,baseline: vehicle,28%

# Study 2 — read-out: enzyme activity; mode: inhibitor; tested at: 0.5 µM; baseline: control
# Target: cAMP-dependent protein kinase catalytic subunit alpha (PRKACA, Homo sapiens, UniProt P17612)
Structure (SMILES),remaining activity [%]
C#Cc1cccc(Nc2ncnc3cc(OCCOC)c(OCCOC)cc23)c1,93.3
Cc1ccc(NC(=O)c2ccc(CN3CCN(C)CC3)cc2)cc1Nc1nc(-c2cccnc2)cs1,104
CN(C)c1ccc(C=C2C(=O)Nc3ccccc32)cc1,104
Oc1ccc(-c2nc(-c3ccncc3)c(-c3ccc(F)cc3)[nH]2)cc1,84.3
O=C(O)c1ccc2c3c1cccc3c(=O)n1c3ccccc3nc21,99.4
COc1ccc(CNC(=O)Nc2ncc([N+](=O)[O-])s2)cc1,96.9
COc1cc2ncnc(Nc3ccc(Oc4ccccc4)cc3)c2cc1OC,102
CCOC(=O)c1c(C)[nH]c(/C=C2\C(=O)Nc3ccccc32)c1C,97.3
CO[C@H]1C[C@@H]2CC[C@@H](C)[C@@](O)(O2)C(=O)C(=O)N2CCCC[C@H]2C(=O)O[C@H]([C@H](C)C[C@@H]2CC[C@@H](O)[C@H](OC)C2)CC(=O)[C@H](C)/C=C(\C)[C@@H](O)[C@@H](OC)C(=O)[C@H](C)C[C@H](C)/C=C/C=C/C=C/1C,99.8
OCC(O)CCON=C1C(c2c(O)[nH]c3ccccc23)=Nc2ccccc21 (stereo not drawn),89.1
O=C(Nc1cccc(Nc2cc(Nc3cccc(C(F)(F)F)c3)ncn2)c1)C1CC1,102
O=C1NC(=O)C(c2cn(CCCO)c3ncccc23)=C1c1cnccn1,87.7
N#CC(C#N)=C(N)/C(C#N)=C/c1ccc(O)cc1,100
Cc1cccc(-c2[nH]c(C(C)(C)C)nc2-c2ccc3c(c2)OCO3)n1,102
Nc1ncnc2n[nH]c(Nc3ccc(F)cc3)c12,96.8

# Study 3 — tested at: 1 µM
# SMILES: C=CC(=O)N1CCC([C@@H]2CCNc3c(C(N)=O)c(-c4ccc(Oc5ccccc5)cc4)nn32)CC1
target,test,inhibition
"Ribosomal protein S6 kinase alpha-6, C-terminal kinase domain (RPS6KA6, Homo sapiens, UniProt Q9UK32)",inhibitor,18%
"EPHB4 (Homo sapiens, UniProt P54760)",cell-free assay,0%
"CSNK1A1 (Homo sapiens, UniProt P48729)","enzyme activity, inhibitor",3%
"DCLK3 (Homo sapiens, UniProt Q9C098)","enzyme activity, inhibitor",0%
"PRKG2 (Homo sapiens, UniProt Q13237)","enzyme activity, inhibitor",25%
"RIOK1 (Homo sapiens, UniProt Q9BRS2)","enzyme activity, inhibitor",44%
"IRAK4 (Homo sapiens, UniProt Q9NWZ3)","enzyme activity, inhibitor",3%
"CAMK2D (Homo sapiens, UniProt Q13557)","enzyme activity, inhibitor",0%

# Study 4 — read-out: cell-free assay; method: competition with immobilised ligand; tested at: 1 µM
# Compound: O=C(NCc1ncc(C(F)(F)F)cc1Cl)c1ccc2c(c1)C1(CCS(=O)(=O)CC1)[C@@H](C1CC1)N2S(=O)(=O)c1ccc(F)cc1
target,remaining binding [%]
"KIT (Homo sapiens, UniProt P10721, V559D/V654A)",68
"EGFR (Homo sapiens, UniProt P00533, L861Q)",76
"MAP3K9 (Homo sapiens, UniProt P80192)",77
"MAP2K5 (Homo sapiens, UniProt Q13163)",90
"PTK6 (Homo sapiens, UniProt Q13882)",94
"CHEK2 (Homo sapiens, UniProt O96017)",97
"STK26 (Homo sapiens, UniProt Q9P289)",82
